Experimental data from different studies.
Protocols differ between the studies behind these lines. ± gives the spread as reported. ≈ marks a conversion by molar mass, not a printed value.

O=C(Nc1nnc(SCC(O)(Cn2cncn2)c2ccc(F)cc2F)s1)Nc1ccccc1C(F)(F)F (stereo not shown) — MIC90 (Nannizzia gypsea; broth microdilution; PTCC 5070; 48 h, 37 °C): 2 µg/mL (≈ 3.59 µM)
NC(=O)c1ncn([C@@H]2O[C@H](CO[P@@](=O)(O)O[P@](=O)(O)OP(=O)(O)O)[C@@H](O)[C@H]2O)n1 — EC50 (Hepatitis E virus; viral replication, inhibitor, luciferase; 48 h, replicon): 7 µM
CCN(CC)CCNC(=O)CN1C(=O)Cc2c([nH]c3ccc(Br)cc23)-c2ccc(Cl)cc21 — infected macrophages (Leishmania braziliensis; intracellular amastigote infection, DAPI fluorescence microscopy; macrophages; 10 µM, 24 h, 5 µM if macrophages detach; lower = more active): 38 to 68%
CNC(=O)c1ccc(-c2cnn3ccc(C(=O)N(CC(=O)O)c4ccc(Cl)cc4)cc23)cc1 — EC50 (Cryptosporidium hominis; cytopathic effect; HCT-8; 48 h): > 20 µM
O=C(CN1C(=O)Cc2c([nH]c3ccc(Br)cc23)-c2ccc(Cl)cc21)NCCN1CCCCC1 — EC50 (Leishmania braziliensis; parasite growth; J774; 24 h, intracellular, amastigote): 4.1 µM
O=C(Nc1ccc(Cl)c(Cl)c1)Nc1nnc(SCC(O)(Cn2cncn2)c2ccc(F)cc2F)s1 (stereo not shown) — MIC90 (Nannizzia gypsea; broth microdilution; PTCC 5070; 48 h, 37 °C): 8 µg/mL (≈ 14.3 µM)
Cc1ccc(S(=O)(=O)N2C(=O)CSC2c2cccc([N+](=O)[O-])c2)cc1 (stereo not shown) — MIC (Lacticaseibacillus casei; broth microdilution; NCIM 2651): 32 µg/mL (≈ 84.6 µM)
COc1cc2[nH]c(C)c(-c3ccc(C(F)(F)F)cc3)c(=O)c2cc1Cl — parasitaemia suppression (Plasmodium berghei (GFP); mice; oral, 50 mg/kg once daily, days 3-5, day 6 post-infection): 10 ± 1.2%
C[C@H](CCC(=O)O)[C@H]1CC[C@H]2[C@@H]3C[C@H](O)[C@@H]4C[C@H](O)CC[C@]4(C)[C@H]3CC[C@]12C — complete inhibition concentration (Clostridioides difficile; spore germination, inhibitor, OD600; NAP1; 20 min, with: 2000 µM taurocholate): 500 µM
C[C@@H]1N[C@H](CCCCCCCCCCc2cc(CCCCCCCCCC[C@H]3CC[C@@H](O)[C@@H](C)N3)c[n+]3c2CCC3)CC[C@H]1O — IC90 (Leishmania donovani; parasite growth; THP-1; intracellular, amastigote): 9.49 µg/mL
Cc1c(C(=O)Nc2ccc3c(c2)B(O)OC3)nnn1-c1ccccn1 — EC50 (Leishmania aethiopica; mouse peritoneal macrophages (CD-1), MHOM/ET/84/KH; 72 h, 34 °C, intracellular amastigotes): 12.3 µM
CNCCOC(=O)OCOc1c(-c2ccc(C(F)(F)F)cc2)c(C)nc2cc(OC)c(Cl)cc12 — parasitaemia suppression (Plasmodium berghei (GFP); mice; oral, 10 mg/kg once daily, days 3-5, day 6 post-infection): 75 ± 0.4%
NS(=O)(=O)c1ccc(-n2c(SCC(=O)Nc3ccccc3)nc3ccccc3c2=O)cc1 — inhibition zone (Candida albicans; microbial growth, well diffusion; ATCC10231; 500 µg/mL, 72 h): 19 mm
COc1cc2[nH]c(C)c(-c3ccc(Oc4ccc(OC(F)(F)F)cc4)cc3)c(=O)c2cc1Cl — single-dose cure dose (Plasmodium yoelii; mouse, patent infection; oral, no recrudescence, PEG-400 vehicle): > 20 mg/kg
O=C(Nc1nnc(SCC(O)(Cn2cncn2)c2ccc(F)cc2F)s1)Nc1ccccc1Br (stereo not shown) — MIC90 (Nannizzia gypsea; broth microdilution; PTCC 5070; 48 h, 37 °C): 16 µg/mL (≈ 28.1 µM)
Cc1ccccc1NC(=O)CSc1nc2ccccc2c(=O)n1-c1ccc(S(N)(=O)=O)cc1 — inhibition zone (Candida albicans; microbial growth, well diffusion; ATCC10231; 500 µg/mL, 72 h): 20 mm
CC(=O)OC[C@@]1(C)[C@H]2CC[C@@H]3CN(Cc4ccc(Br)cc4)[C@@H](C4=CCOC4=O)C[C@H]3[C@]2(C)CC[C@H]1OC(C)=O — inhibition (Human coronavirus 229E; viral replication, cytopathic effect; MRC5 cells; 25 µM): ~100%
CC[C@H]1OC(=O)[C@H](C)[C@@H](O[C@H]2C[C@@](C)(OC)[C@@H](O)[C@H](C)O2)[C@H](C)[C@@H](O[C@@H]2O[C@H](C)C[C@H](N(C)C)[C@H]2O)[C@](C)(O)C[C@@H](C)CN(C)[C@H](C)[C@@H](O)[C@]1(C)O — sensitive strains (other Enterobacteriaceae; community-acquired pneumonia patients; Fine score 70 or more): 0%
Cc1occc(=O)c1O — pycnidia count (Phyllosticta citricarpa; Citrus sinensis leaf discs; 10000 µg/mL, 504 h, methanol solution): 176 ± 9
O=C(CN1C(=O)Cc2c([nH]c3ccc(Br)cc23)-c2ccc(Cl)cc21)N1CCNCC1 — infected macrophages (Leishmania braziliensis; intracellular amastigote infection, DAPI fluorescence microscopy; macrophages; 10 µM, 24 h, 5 µM if macrophages detach; lower = more active): 15 to 68%
Cc1ccc(S(=O)(=O)N2C(=O)CSC2c2cccc(Br)c2)cc1 (stereo not shown) — MIC (Lacticaseibacillus casei; broth microdilution; NCIM 2651): 16 µg/mL (≈ 38.8 µM)
CNC(=O)CN1C(=O)Cc2c([nH]c3ccc(Br)cc23)-c2ccc(Cl)cc21 — infected macrophages (Leishmania braziliensis; intracellular amastigote infection, DAPI fluorescence microscopy; macrophages; 10 µM, 24 h, 5 µM if macrophages detach; lower = more active): 72 to 107%
Cc1ccc(Nc2nc(-c3cc(C(=O)Nc4ccc(O)cc4)no3)cs2)cc1 — IC50 (Mycobacterium avium; 11; 96 h): > 100 µM
O=C(Nc1ccc(Cl)cc1)Nc1nnc(SCC(O)(Cn2cncn2)c2ccc(F)cc2F)s1 (stereo not shown) — MIC90 (Nannizzia gypsea; broth microdilution; PTCC 5070; 48 h, 37 °C): 8 µg/mL (≈ 15.3 µM)
CC1(C)S[C@@H]2[C@H](NC(=O)[C@H](N)c3ccc(O)cc3)C(=O)N2[C@H]1C(=O)O — sensitive strains (all pathogens; community-acquired pneumonia patients; Fine score below 70): 64.8%
O=C(CN1C(=O)Cc2c([nH]c3ccc(Br)cc23)-c2ccc(Cl)cc21)N1CCOCC1 — infected macrophages (Leishmania braziliensis; intracellular amastigote infection, DAPI fluorescence microscopy; macrophages; 10 µM, 24 h, 5 µM if macrophages detach; lower = more active): 15 to 68%
CC[C@H]1OC(=O)[C@H](C)[C@@H](O[C@H]2C[C@@](C)(OC)[C@@H](O)[C@H](C)O2)[C@H](C)[C@@H](O[C@@H]2O[C@H](C)C[C@H](N(C)C)[C@H]2O)[C@](C)(O)C[C@@H](C)C(=O)[C@H](C)[C@@H](O)[C@]1(C)O — sensitive strains (other Enterobacteriaceae; community-acquired pneumonia patients; Fine score below 70): 0%
CCCCCCCc1cc(=O)c2c(CC(=O)OC)cc(O)cc2o1 — pycnidia count (Phyllosticta citricarpa; Citrus sinensis leaf discs; 10000 µg/mL, 504 h, methanol solution): 200 ± 6
Cc1cccc(NC(=O)Nc2nnc(SCC(O)(Cn3cncn3)c3ccc(F)cc3F)s2)c1 (stereo not shown) — MIC90 (Nannizzia gypsea; broth microdilution; PTCC 5070; 48 h, 37 °C): 2 µg/mL (≈ 3.97 µM)
CN(C(=O)c1ccn2ncc(-c3ccc(C(N)=O)cc3)c2c1)c1ccc(C#N)cn1 — EC50 (Cryptosporidium parvum; cytopathic effect; HCT-8; 48 h): 0.156 ± 0.028 µM
CC(=O)O[C@@H]1CC[C@@]2(C)[C@@H](C1)C[C@H](OC(C)=O)[C@@H]1[C@@H]2CC[C@]2(C)[C@@H]([C@H](C)CCC(N)=O)CC[C@@H]12 — complete inhibition concentration (Clostridioides difficile; spore germination, inhibitor, OD600; NAP1; 20 min, with: 2000 µM taurocholate): 50 µM
O=C(Nc1ccc(F)cc1)Nc1nnc(SCC(O)(Cn2cncn2)c2ccc(F)cc2F)s1 (stereo not shown) — MIC90 (Nannizzia gypsea; broth microdilution; PTCC 5070; 48 h, 37 °C): 8 µg/mL (≈ 15.8 µM)
CC1(C)S[C@@H]2[C@H](NC(=O)[C@H](N)c3ccccc3)C(=O)N2[C@H]1C(=O)O — MIC (Lacticaseibacillus casei; broth microdilution; NCIM 2651): 2 µg/mL (≈ 5.72 µM)
CNC(=O)c1ccc(-c2cnn3ccc(C(=O)N(C[C@H]4CCC(=O)O4)c4ccc(OC(F)(F)F)cc4)cc23)cc1 — EC50 (Cryptosporidium hominis; cytopathic effect; HCT-8; 48 h): 0.503 µM
NC(=O)c1ncn([C@@H]2O[C@H](CO)[C@@H](O)[C@H]2O)n1 — antiviral activity (porcine epidemic diarrhea virus; 10 µg/mL, 1 h, 4 °C, virus pre-incubation then washing): 0.9%
CC(=O)Oc1ccccc1C(=O)Nc1ncc([N+](=O)[O-])s1 — viral genome equivalents (human norovirus; virus adsorption; human intestinal enteroids; concentration not given): no effect
CN[C@H](CC(C)C)C(=O)N[C@H]1C(=O)N[C@@H](CC(N)=O)C(=O)N[C@H]2C(=O)N[C@H]3C(=O)N[C@H](C(=O)N[C@H](C(=O)O)c4cc(O)cc(O)c4-c4cc3ccc4O)[C@H](O)c3ccc(c(Cl)c3)Oc3cc2cc(c3O[C@@H]2O[C@H](CO)[C@@H](O)[C@H](O)[C@H]2O[C@H]2C[C@](C)(N)[C@H](O)[C@H](C)O2)Oc2ccc(cc2Cl)[C@H]1O — serum cytokine level (Staphylococcus aureus CVCC546; ELISA, item: IL-10; CD-1 mouse endometritis; 10 µg/mL, 24 h): 48.2 pg/mL
